Published values gathered from unrelated publications.
Each line is one published result; not all experiments were run side by side.
Cell line: SK-OV-3

| Structure (SMILES) | test | setting | scale | measurement | result |
| --- | --- | --- | --- | --- | --- |
| CC(C)(C)C(=O)OCOP(=O)(OCOC(=O)C(C)(C)C)C1CCCN(O)C1=O (centres unmarked) | – | – | – | log TGI | -5.05 log M |
| Cc1cc(Oc2nc(N3CC[C@@H](c4ccncc4)C3)ncc2F)[nH]n1 | cell proliferation | – | – | IC50 | > 100 µM |
| CCCc1cc2cc(-n3nc(CC)c4c3CC3(CCC3)CC4=O)cc(N3CCC(O)CC3)c2c(=O)[nH]1 | cell growth or viability, MTS | – | – | IC50 | 3.53 µM |
| O=C1C=CC(=C(c2ccc(O)cc2)c2c(C#Cc3ccc(O)cc3)cccc2-c2ccc(O)cc2)C=C1 | cell growth or viability, MTT | 48 h | – | IC50 | 12.1 µM |
| CC1OC2OC3C4=C(OC3(C)C12O)C(=O)c1c(O)cccc1C4=O (centres unmarked) | sulforhodamine B | 10 µg/mL, 48 h | negative means cell kill | growth percent | -78.7% |
| CCCc1cc2cc(-n3nc(C)c4c3CC3(CCC3)CC4=O)cc(N3CCC(O)CC3)c2c(=O)[nH]1 | cell growth or viability, MTS | – | – | IC50 | 7.73 µM |
| Cc1cc(Nc2nc(C[C@@]3(C(=O)O)CCN(Cc4cccc(Cl)c4F)[C@H](C)C3)cc(C)c2F)[nH]n1 | cell growth or viability, ATP luminescence | 5 days | – | IC50 | > 10 µM |
| O=C(c1cc(Cc2n[nH]c(=O)c3ccccc23)ccc1F)N1CC(CNC2CC2)C1 | colony formation | – | – | IC50 | 1.78 µM |

For quick reference, copied from above:
| Structure (SMILES) | test | setting | scale | measurement | result |
| --- | --- | --- | --- | --- | --- |
| Cc1cc(Oc2nc(N3CC[C@@H](c4ccncc4)C3)ncc2F)[nH]n1 | cell proliferation | – | – | IC50 | > 100 µM |
